Results collected from several papers.
Every numbered part comes from another study and shows a few of its results, in no order. Positions count from the first letter of the parent shown.

Study 1
Target: Hepatocyte nuclear factor 3-alpha (Foxa1, Mus musculus, UniProt P35582, residues 1-468, full length assumed)
Technique: EMSA with sequencing
Molecule type: double-stranded DNA, one strand shown
Medium: in vitro
Concentration: 10 and 20 nM
Setting: whole designed probe, mean of two concentrations, ends assumed
Baseline: negative control set to 0
Direction: higher = stronger binding
Residues (chain): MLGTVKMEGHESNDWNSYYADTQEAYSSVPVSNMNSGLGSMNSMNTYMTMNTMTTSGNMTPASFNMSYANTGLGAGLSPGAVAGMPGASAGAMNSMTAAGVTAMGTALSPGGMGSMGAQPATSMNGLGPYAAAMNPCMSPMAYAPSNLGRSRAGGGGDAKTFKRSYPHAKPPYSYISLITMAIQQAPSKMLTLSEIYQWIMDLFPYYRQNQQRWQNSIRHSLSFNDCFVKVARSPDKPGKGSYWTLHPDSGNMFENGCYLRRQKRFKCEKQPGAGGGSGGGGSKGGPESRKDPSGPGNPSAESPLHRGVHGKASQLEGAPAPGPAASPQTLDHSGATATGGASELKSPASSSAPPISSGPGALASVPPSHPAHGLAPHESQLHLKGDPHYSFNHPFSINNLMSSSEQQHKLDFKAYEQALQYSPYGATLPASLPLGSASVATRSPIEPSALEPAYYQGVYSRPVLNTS
| Sequence | normalised bound fraction |
| --- | --- |
| GTGAGCGGTGCCCATTGATGGGGAACCTTTTAGTCCTTTTGTTTTACAGTCTCACAGTTAATTGTTCTTAGTTGATTTATCTTTTCTTACTCTTTCATAAGACTTTTCTTTTATCTCATGTTTACTTTGTTCTTATATTACTTATTTACTTAGTTTCTTCTTATCACCTTAGGCTTTGTTTTAATTATTTCCTTTTTATGTTATCTATTTTTCATTTTATTTCACTGGGATCGTGGGGAC | 0.544 ratio |
| GTGAGCGGTGCCCATTGATGGGGAACGACTATGCCTATACTCTAAGCAAGGGATTCTGAACGTATGATTAGCAACAGATGTGTTTACATGAAGGGTTGAGAGTGGATCTCTTGTTGCATGTTTACATTAAGTTCTCATAAAAATCAATTATATTTTTGGGAGACTATTTTGATGTTATTTTGGGGGTTAATGGAGACTAAGTCCTATTAATTATGATATTTTCACTGGGATCGTGGGGAC | 0.361 ratio |
| GTGAGCGGTGCCCATTGATGGGGAACACCAAAGTATCACAGGGAGAGATGGGCCTCTTGGGGCAGCAGCAGCAGCTGAAGCAGGCTGACTCACAGCTGCTTCTAATATGCTAGGCTTTGTGTAAACAGGCTTTATGACACAAGTGGGCTGACTACAGTGCAATTGGAGTGTGGCATCTGAGTCACTGTGAGGCTCTAGCTGGCTTCTTCCAGCCCTGGCTTTCACTGGGATCGTGGGGAC | 0.308 ratio |

Study 2
Target: Interferon regulatory factor 5, full length, phosphomimetic (IRF5, Homo sapiens, UniProt Q13568-2, residues 1-514, K96S/S451D/S453D/S456D/S462D)
Technique: protein-binding microarray
Molecule type: double-stranded DNA, one strand shown
Medium: in vitro
Concentration: 250 nM
Setting: 60-bp whole probe
Added: salmon DNA 0.4 mg/ml
Baseline: random background probes
Direction: higher = stronger binding
Shared flanks, not repeated: GCCTAGCAC … GTCTTGATTCGCTTGACGCTGCTG
| Sequence | log fluorescence |
| --- | --- |
| GACGAACTGAGATTGGAGACGTGCTAG | -0.365 z-score |
| CTAGATTTCGGGTATCGATTAGTGCTA | 7.38 z-score |
| TTAGGACTGCTTTTCGTTTAGTGCTAG | 1.04 z-score |
| GATGGTCTCGGTATCGGGACGTGCTAG | 1.39 z-score |
| TCAGATTTATCAAATGTGACTGTGCTA | 0.386 z-score |
| TCATCCATGCTCTGTCGCACTGTGCTA | 0.0957 z-score |
| TTAGGTTTACTACTGCTTTAGTGCTAG | 0.123 z-score |
| GACGGTATCGGTTCCGGGACGTGCTAG | 6.01 z-score |
| TTAGGTTTCGGTTTCGGTCAGTGCTAG | 11.9 z-score |
| TTGGGTTTCGGGTTTCGGTTAGTGCTA | 9.52 z-score |
| ATAGATATCGGGTATCGATTAGTGCTA | 6.04 z-score |
| TTAGGTAACGACTATCGGTTAGTGCTA | 7.19 z-score |
| TCATTCCTGATCTCTGGTACTGTGCTA | 0.424 z-score |
| TTAGGACTGGGTCTCGGCTAGTGCTAG | -0.55 z-score |
| TTAGGTTTCGACTTTCGGTTAGTGCTA | 10.3 z-score |
| TTAAGACTGGGGACTGGGTTAGTGCTA | -0.478 z-score |
| GACGGACTGATTATCCTGACGTGCTAG | -0.172 z-score |
| TTGGATCTCAGTTTCGATTAGTGCTAG | 8.94 z-score |

Study 3
Target: Fragile X messenger ribonucleoprotein 1, C-terminal low-complexity region (Fmr1, Mus musculus, UniProt P35922)
Technique: RNA Bind-n-Seq
Molecule type: RNA
Medium: in vitro
Concentration: 200 nM
Setting: whole 134-nt RNA, ends assumed
Added: 150 mM LiCl
Baseline: input library
Direction: higher = stronger binding
Each molecule: 7-deaza-guanosine replaces G
Shared flanks, not repeated: GGGAGUUCUACAGUCCGACGAUC … UGGAAUUCUCGGGUGUCAAGG
| Sequence | log2 enrichment |
| --- | --- |
| CCUGUGCUACACAUCGUAUGUACCGAAUCGGGGAAAAAAGGGGAAAAAAGGAAAAAAGGGAAAGUAUUAUGUUACGCCGUUCGGAUCUGC | 0.126 |
| CCUGUGCUACACAUCGUAUGUACCGAAUCGGAAAAAAGGGGAAAAAAGGGAAAAAAGGGGAAAGUAUUAUGUUACGCCGUUCGGAUCUGC | -0.228 |
| GUCCUGUGCUACACAUCGUAUGUACCGAAUCGGGGAGGGGAAAAAGGGGAAAAAGGGGAAAGUAUUAUGUUACGCCGUUCGGAUCUGCAC | 1.24 |
| ACCAUGCAGGUGGGCAUCUUUGGGAAGUGGGGCAAGGGGGGGAUAGGGAGGGGGGUAACACUUUGGGAACAGGUGGUCCCAGGUCGUUUU | 1.38 |
| ACCAUGCAGGUGGGCAUCUUUGGGAAGUGGGGCAAGGGGGGGAUAGGGAGGGGCGUAACACUUUGGGAACAGGUGGUCCCAGGUCGUUUC | 1.66 |
| AAGUCCUGUGCUACACAUCGUAUGUACCGAAUCGGGUUUUUGGGAGGGAAAAAGGGAAAGUAUUAUGUUACGCCGUUCGGAUCUGCACUU | -0.759 |
| UCAAGUCCUGUGCUACACAUCGUAUGUACCGAAUCGGAAAGGUGGAAAAAAAGGAAAGUAUUAUGUUACGCCGUUCGGAUCUGCACUUCC | -0.502 |
| GCAGGAAGUAAAAACAAAUGGAAAUGCUUCGGAUAGUGGCAGGGGUCGGGGUUGCUAAGGAAAGGGUGGGAUGGGAGUGGGUAAAGAGUU | 1.48 |
| UAACUUUAGAGGAGGAUCUGAUGGAUAGGGCAGUGGACGUGGAUUUGGGGAUGGCUAUAAUGGGUAUGGAGGAGGACCUGGAGGUGGCAA | 0.0452 |
| AGUCCUGUGCUACACAUCGUAUGUACCGAAUCGGGGAGGGGAGGGGAAAAAAAGGGGAAAGUAUUAUGUUACGCCGUUCGGAUCUGCACU | 0.701 |
| GCAGGAAGUAAAAACAAAUGGAAAUGCUUCGGCUAGUGGCAGGGGUGGGGGUUGCUAAGGAAAGGGUGGGAUGGGAGUGGGUAAAGAGUU | 1.48 |

Study 4
Target: CCNE1, cyclin fold, Cln2 fusion (human)
Technique: yeast growth competition, sequencing
Medium: yeast
Setting: weak parent motif
Baseline: not given
Direction: higher = stronger binding
Starting sequence: PKN2 docking peptide (human); VSAVQKLDFSDTM
| Change | normalised enrichment score |
| --- | --- |
| D11H | 0.563 |
| L7A | -0.074 |
| S10P | 0.474 |
| T12G | 0.49 |
| V4H | -0.0124 |
| M13Q | 0.122 |
| V4R | 0.369 |
| V1N | 0.782 |
| D8P | 0.408 |
| S10V | 0.823 |
| D11W | 0.96 |
| V4K | 0.0379 |
| M13W | 1.19 |
| K6A | 0.206 |
| A3H | 0.38 |
| F9L | 0.0047 |

Study 5
Target: Histone acetyltransferase KAT6A, winged helix 2, GST fusion (KAT6A, Homo sapiens, UniProt Q92794, residues 85-181)
Technique: protein binding microarray
Molecule type: double-stranded DNA, one strand shown
Medium: in vitro
Concentration: not given
Setting: 8-mer, flanks averaged, mean of 2 arrays, mostly near background
Baseline: not given
Direction: higher = stronger binding
Construct (chain): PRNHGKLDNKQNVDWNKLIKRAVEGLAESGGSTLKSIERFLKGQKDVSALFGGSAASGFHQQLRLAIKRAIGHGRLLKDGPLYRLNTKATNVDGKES
| Sequence | E-score |
| --- | --- |
| AGTTAAAA | -0.0769 |
| ATCGAACA | 0.161 |
| GGAGGACA | 0.0404 |
| ACACCGAC | 0.171 |
| AATGTGAC | -0.0216 |
| TCACCTGA | -0.0826 |
| AAGTATGA | -0.118 |
| CAGGCCCG | -0.0444 |
| GGATCTCA | 0.0345 |
| ACCCCGGG | 0.14 |
| CCCCCACA | -0.101 |
| GATGCCGA | 0.0979 |
| CGGCTAAG | 0.132 |
| AGGCATAT | 0.0451 |
| CCCAAGAG | 0.0892 |
| AATAGTCA | 0.0113 |
| CAATGCTA | -0.00757 |
| GGCAGAGA | 0.0833 |
| CACACGCC | 0.0637 |
| GATGGCGC | -0.0423 |
| CGCCAGCG | 0.177 |
| TAAGAGGA | 0.0166 |
| TCCGACCA | -0.0192 |
| CCCGAGCA | 0.0848 |
| CTCTAGCC | 0.0319 |

Study 6
Target: Sal-like protein 4, full length isoform B (SALL4, Homo sapiens, UniProt Q9UJQ4-2, residues 1-616)
Technique: universal PBM
Molecule type: double-stranded DNA, one strand shown
Medium: in vitro
Concentration: not given
Setting: 8-mer, flanks averaged, mean of replicates
Direction: higher = stronger binding
| Sequence | E-score |
| --- | --- |
| GAACCTAA | -0.0707 |
| GAGTGCAC | -0.158 |
| AAATCCAA | 0.169 |
| GCCCCACA | -0.31 |
| ACTCAGTC | -0.194 |
| CCCAAATC | 0.0179 |
| AATGATCT | 0.207 |
| AGGTCGCC | -0.258 |
| CCACTCCC | -0.188 |
| AACGTAGT | 0.153 |
| ATATTGTC | 0.328 |
| CCGCGTAC | -0.182 |
| GAATTACC | 0.113 |
| CCTTTCGA | -0.0508 |
| ACGCGGGA | -0.127 |
| CATCTAGC | -0.0223 |
| GCGATAGA | -0.117 |
| AGCTAGAA | -0.0613 |
| AATATCGT | 0.334 |

Some of these lines once more (study 6):
| Sequence | E-score |
| --- | --- |
| GAGTGCAC | -0.158 |
| AAATCCAA | 0.169 |
| GCCCCACA | -0.31 |
| ACTCAGTC | -0.194 |
| CCCAAATC | 0.0179 |
| AATGATCT | 0.207 |
| AGGTCGCC | -0.258 |
| CCACTCCC | -0.188 |
